Assay results collected from several papers.
Lines come from different studies, so protocols differ. Several values in a cell are separate wells, animals, samples, runs or records. ± marks the error that the study gave.

`COc1cc(/C=C/C(=O)N2CCC=CC2=O)cc(OC)c1OC` has a mRNA level of 110 ± 4.1% (MDA-MB-468; quantitative RT-PCR, refers to: MnSOD; 30 µM, 8 h; reference: untreated).
The mitochondrial toxicity of `COC(=O)C1CCN(C(=O)c2cccc(NCc3cnc4nc(N)nc(N)c4n3)c2)CC1` is reported as 10.1 ± 12.3% (786-O; high-content imaging, refers to: MitoTracker Red uptake; 10 µM).
Under “log2 fold change”, `Cn1cc(-c2ccc(-c3cncc(Cl)c3N3CCC4(CCNC4=O)CC3)cc2)cn1` is recorded as 1.1 (COLO 205; gene expression, microarray, refers to: KLF8 mRNA; concentration not given, 2 h; reference: untreated cells).
For `CCn1cc(-c2cc(Cn3ccoc3=N)cc3c2CCN([C@@H](C)c2cc(OC)ccn2)C3=O)c(C(F)(F)F)n1`, the EC50 was 29.7 nM (JeKo-1; cell growth, inhibitor; 120 h).
`Cc1c(-c2c(-c3ccc(F)o3)sc3ncnc(O[C@H](Cc4ccccc4OCc4ccnn4CC(F)(F)F)C(=O)O)c23)ccc(OCCN2CCN(C)CC2)c1Cl` — result for “fold change in IC50”: 2.06 (HD-MB03; concentration not given, with: ribociclib NG; reference: ribociclib over DMSO).
`COc1cnc2cccc(N3CCc4c(cc(Cn5ccnc5C)cc4-c4cn(C)nc4C(F)(F)F)C3=O)c2c1` gave an EC50 of greater than 30000 nM (NCI-H661; cell growth, inhibitor; 120 h).
`CC(=O)O[C@H]1C(=O)[C@@]2(C)[C@H]([C@H](OC(=O)c3ccccc3)[C@]3(O)C[C@H](OC(=O)[C@H](O)[C@@H](NC(=O)c4ccccc4)c4ccccc4)C(C)=C1C3(C)C)[C@]1(OC(C)=O)CO[C@@H]1C[C@@H]2O` has a viability of 85.7% (CHP-212 resistant sublines, USP7 V517F heterozygous; 0.01372 µM).
`CO[C@H]1C[C@@H]2CC[C@@H](C)[C@@](O)(O2)C(=O)C(=O)N2CCCC[C@H]2C(=O)O[C@H]([C@H](C)C[C@@H]2CC[C@@H](OC(=O)C(C)(CO)CO)[C@H](OC)C2)CC(=O)[C@H](C)/C=C(\C)[C@@H](O)[C@@H](OC)C(=O)[C@H](C)C[C@H](C)/C=C/C=C/C=C/1C` gave an IC50 of 280 nM (HD-MB03; cell growth; 168 h, DMSO).
The viability of `Nc1cccc2c1C(=O)N(C1CCC(=O)NC1=O)C2=O` (stereo not drawn) is reported as 18% and 16% and 31% (MM1.S; XTT; 1.8 µM).
`C=CCn1c(=O)c2cnc(Nc3ccc(N4CCN(C)CC4)cc3)nc2n1-c1ccc2c(n1)[C@@](O)(CC)CC2`: “S phase mitotic cells” 1.53% (NCI-H1048; flow cytometry; concentration not given).
`Cc1cc(NS(=O)(=O)c2ccc(NC(=O)/C(C#N)=C/c3ccc(N4CCCCC4)cc3)cc2)no1` — result for “mRNA level decrease”: 2.3 fold (HCT-116; qRT-PCR, refers to: cyclin A1; concentration not given; reference: untreated).
`S=C([S][Au-][P+](CCCCCC[P+]([Au-][S]C(=S)n1cccn1)(c1ccccc1)c1ccccc1)(c1ccccc1)c1ccccc1)n1cccn1` gave a log TGI of greater than -4 log10 M (786-O; cell growth, NCI-60 screen; renal cancer).
`CCn1cc(-c2cc(Cn3ccnc3)cc3c2CCN([C@H](c2cc(OC)ccn2)C2CC2)C3=O)c(C(F)(F)F)n1` gave an EC50 of greater than 30000 nM (HCT-8; cell growth, inhibitor; 120 h).
`CCN(c1nc(N)c(C(=O)NC(=N)N)nc1Cl)C(C)C`: “reduction of PS-positive cells” 6.4% (HMC3; endocytosis, flow cytometry; 30 µM, 2 h pretreatment then 3 h, with: FITC-PS 0.2 mg/mL).
`CCCCc1nc(Cl)c(CO)n1Cc1ccc(-c2ccccc2-c2nn[nH]n2)cc1` — result for “log2 fold change”: -1.52 (human PBMC; RNA-seq, refers to: CARD9 mRNA; 10 µg/mL, 24 h; reference: untreated control).
`CC(C)NCC(O)c1ccc(O)c(O)c1` (stereo not drawn) has a sarcomere length of 1.8 µm (mouse ventricular cardiomyocytes; dose not given, 0.343 s).
`COc1c(C)cnc(Cn2cnc3c(Cl)nc(N)nc32)c1C` has an IC50 of 142 nM (HD-MB03; cell growth; 168 h, single agent).
For `C[C@H](Nc1ccc2c(c1)OCCn1cc(N3C(=O)OC[C@H]3C(F)F)nc1-2)C(N)=O`, the IC50 was 2.4 nM (NCI-H1048; growth rate inhibition, CellTiter-Glo; 120 h).
`COc1cc(Nc2ncc3c(n2)-c2ccc(Cl)cc2C(c2c(F)cccc2OC)=NC3)ccc1C(=O)O` has an IC50 of 40.7 nM (HD-MB03; cell growth; 168 h, DMSO).
`Cc1ccc2[nH]c(=O)c(CNC3CCCCC3)cc2c1` has a Ca2+ mobilisation of 14.1 ± 0.15 (COS-7, untransfected; 500 µM, relative to vehicle, unit not given; reference: 3 µM ionomycin response).
The fold change of `CCCCc1oc2ccc(NS(C)(=O)=O)cc2c1C(=O)c1ccc(OCCCN(CCCC)CCCC)cc1` is reported as 2.3 fold (human embryonic stem cell aggregates; mRNA level, microarray, refers to: SNAI1; 0.5 µM, 120 h; reference: untreated, down-regulated).

Some of these lines once more:
`COc1cnc2cccc(N3CCc4c(cc(Cn5ccnc5C)cc4-c4cn(C)nc4C(F)(F)F)C3=O)c2c1` gave an EC50 of greater than 30000 nM (NCI-H661; cell growth, inhibitor; 120 h).
The viability of `Nc1cccc2c1C(=O)N(C1CCC(=O)NC1=O)C2=O` (stereo not drawn) is reported as 18% and 16% and 31% (MM1.S; XTT; 1.8 µM).
`COc1cc(Nc2ncc3c(n2)-c2ccc(Cl)cc2C(c2c(F)cccc2OC)=NC3)ccc1C(=O)O` has an IC50 of 40.7 nM (HD-MB03; cell growth; 168 h, DMSO).
